Assay results gathered from unrelated publications.
Every numbered part comes from another study and shows a few of its results, in no order.

Block 1
Target: RNA binding protein fox-1 homolog 2, RRM domain, GST-SBP tag (RBFOX2, Homo sapiens, UniProt O43251-10, residues 100-194)
Method: RNA Bind-n-Seq
Form: RNA
Medium: in vitro
Tested at: 365 nM
Notes: natural RNA segment, single round, ends assumed
Baseline: no-protein control
Direction: higher = stronger binding
Target sequence (chain): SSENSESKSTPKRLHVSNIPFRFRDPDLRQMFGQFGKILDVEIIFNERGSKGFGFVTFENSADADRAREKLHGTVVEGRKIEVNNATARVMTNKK
Under “RBNS enrichment (R)”, `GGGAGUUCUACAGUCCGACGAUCUGGAGUAGACCCCUGGCUGGUAAGGGCCAAGUCCCACCGGUUGCUUCUGGGAAGGGGUUUCUAACACUAGUCUGUGUGCUGUGGUUCCUGGGGUGCCCUCCACUGCCCUCUGGAAUUCUCGGGUGCCAA` is recorded as 1.86.
`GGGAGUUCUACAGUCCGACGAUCAUGCACCUGCAAGAAUUGGGAAGAAAGAGCAUUUAUUAGGCACUGUAGCAAUUUGCAUUUUAAAAUGCCUGAGCAUUUAUUAAGCUUCUUGGUAUUCACUUGGGUUUGAUUGGAAUUCUCGGGUGCCAA` — result for “RBNS enrichment (R)”: 2.3.
`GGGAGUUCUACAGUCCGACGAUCGUUGCUUCCCGUUCAGCGUCACAUCUGCAGUGGAGCCUGAAAAGGCUCCACAUUAGGUCACCUGUGCACAGCCAUGGCUGGAAUGAUGAAGGGGAUACGCUGGAGUUGCCUGGAAUUCUCGGGUGCCAA` — result for “RBNS enrichment (R)”: 0.293.
`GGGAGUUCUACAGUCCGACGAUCAAAACAAAAAACAGAAAAACAAACAAAAAAAGUUGUAUUAUACAGGAUCAAUAUUUUGCUUUUUAACAAGGAUAUUUAUGUAAUAAGAAACUUUGCCUUAGGUAGGUGUUUGGAAUUCUCGGGUGCCAA` — result for “RBNS enrichment (R)”: 0.804.
`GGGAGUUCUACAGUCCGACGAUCCUCCAAAGGAAGUCUAGGAGCUGGGAGGAAAAGAAAAGAGGGGAAAAUGAGUUUUUAUGGGGCUGAACGGGGAGAAAAGGUCAUCAUCGAUUCUACUUUAGAAUGAGAGUUGGAAUUCUCGGGUGCCAA`: “RBNS enrichment (R)” 2.92.
Under “RBNS enrichment (R)”, `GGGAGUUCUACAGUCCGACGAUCUCAGUGGUGCUUUUGUACCUAGGUUUUAUGUGAUUUUAAUGAAACAUGGAUAGUUGUGGCCACCUGCUGACUAUUUGUGGUUUAAAAUAAAAGGUUUACUUGUCUGCAGAUGGAAUUCUCGGGUGCCAA` is recorded as 0.361.
`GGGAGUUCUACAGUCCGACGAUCCUGAUUUUUCCUCCAUCCUGCUUACCACCUCCCUGGGUACUUACAGCCUUCUCUUGGGAACAGCCGGGGCCAGGACUGGGUCACCUAUGAGCUGAAUCAGCAUCUCCUCCUGGAAUUCUCGGGUGCCAA`: “RBNS enrichment (R)” 0.393.
Under “RBNS enrichment (R)”, `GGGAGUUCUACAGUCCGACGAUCAAAUAUAUAAUGCAUUUGCAGUUGUACAUGGGCUAGUUAUAUCAUUUUAGGUGUAAUUAUGACCUGGCUAUUAUUUUCAUUUGGAAAUUAAGCAUGGCAUAAGAAGAUAUUGGAAUUCUCGGGUGCCAA` is recorded as 0.721.

Block 2
Target: Replicase polyprotein 1ab, polymerase (rep, Severe acute respiratory syndrome coronavirus 2, UniProt P0DTD1)
Effect on: enzyme activity
Action: inhibitor
Tested at: 20 µM
The inhibition of `Nc1nc2cc(-c3ccc4ncc(C(=O)N5CCOCC5)n4c3)ccc2o1` is reported as 2.7%.
`CCCCCOC(=O)Nc1nc(=O)n([C@@H]2O[C@H](C)[C@@H](O)[C@H]2O)cc1F` gave an inhibition of -6.55%.
For `C[C@]12CC[C@H](O)CC1=CC[C@@H]1[C@@H]2CC[C@]2(C)C(=O)CC[C@@H]12`, the inhibition was -11%.
With `Nc1[nH]cnc2ncnc1-2` the inhibition was 1.33%.
`COCc1c[n+]([O-])c(C)cn1` gave an inhibition of 0.76%.
`OCCCNc1cc(-c2ccnc(Nc3cccc(Cl)c3)n2)ccn1` has an inhibition of 3.25%.
The inhibition of `NCCNCCNCCN` is reported as -5.27%.
For `COc1ccsc1CNCC[C@@]1(c2ccccn2)CCOC2(CCCC2)C1`, the inhibition was 1.29%.
For `CC(C)c1noc(N2CCC(COc3ccc(-c4ccc(S(C)(=O)=O)cc4)nc3)CC2)n1`, the inhibition was 0.31%.
For `COc1cc(Nc2ncc3c(n2)-c2ccc(Cl)cc2C(c2c(F)cccc2OC)=NC3)ccc1C(=O)O`, the inhibition was 3.84%.
With `CCOc1ccccc1C(N)=O` the inhibition was -0.31%.
The inhibition of `C#C[C@]1(O)CC[C@H]2[C@@H]3CCC4=CC(=O)CC[C@@H]4[C@H]3CC[C@@]21C` is reported as 0.67%.
`C=CCNc1c(O)cc2c(O)c1C[C@@H](C)C[C@H](OC)[C@H](O)[C@@H](C)/C=C(\C)[C@H](OC(N)=O)[C@@H](OC)/C=C\C=C(/C)C(=O)N2` gave an inhibition of 1.09%.
For `CC(=O)Nc1cccc(Nc2ncnc(N3CCC(OCc4ccc(OC(F)(F)F)cc4)CC3)n2)c1C`, the inhibition was -6.91%.
For `O=C1N=C(O)NC1(c1ccccc1)c1ccccc1`, the inhibition was 22.4%.
With `O=C(Nc1cc(C(F)(F)F)cc(C(F)(F)F)c1)Nc1c(Br)cc(Br)cc1-c1nn[nH]n1` the inhibition was 10.5%.
With `Nc1ccc(O)c(C(=O)O)c1` the inhibition was 2.2%.
With `C[C@]12CC[C@@H](O)C[C@H]1CC[C@@H]1[C@@H]2CC[C@]2(C)C(=O)CC[C@@H]12` the inhibition was -2.42%.
The inhibition of `Cc1ccc(-c2n[nH]c3c2C(c2cccc(O)c2)N(c2ccc(C(=O)O)cc2)C3=O)cc1` (stereo not drawn) is reported as 17.6%.
For `Cc1cc(C)c(CNC(=O)c2cc(-c3ccc(CN4CCOCC4)cc3)cc3c2cnn3C2CCCC2)c(=O)[nH]1`, the inhibition was -4.58%.
For `O=C(NCc1ccccc1)OCCO`, the inhibition was -10.2%.
For `C[C@]12CCC(=O)C=C1CC[C@@H]1[C@@H]2CC[C@@]2(C)[C@H]1CC[C@]2(C)O`, the inhibition was 0.77%.
`C[Se]CC[C@H](N)C(=O)O` has an inhibition of -0.65%.
With `N#CC(c1ccccc1)(c1ccccc1)c1ccccc1Cl` the inhibition was -9.65%.
For `O=C1N=C(N2CCOCC2)CN1c1ccc(Cl)cc1`, the inhibition was -2.68%.

Block 3
Target: Interferon regulatory factor 7, full length, phosphomimetic (IRF7, Homo sapiens, UniProt Q92985, residues 1-503, S471D/S472D/S475D/S476D/S477D/S483D/S484D/S487D)
Method: protein-binding microarray
Form: double-stranded DNA, one strand shown
Medium: in vitro
Tested at: 2200 nM top
Notes: 60-bp whole probe
With: salmon DNA 0.4 mg/ml
Baseline: random background probes
Direction: higher = stronger binding
All sequences stand within: GCCTAGCAC … GTCTTGATTCGCTTGACGCTGCTG
Target sequence (chain): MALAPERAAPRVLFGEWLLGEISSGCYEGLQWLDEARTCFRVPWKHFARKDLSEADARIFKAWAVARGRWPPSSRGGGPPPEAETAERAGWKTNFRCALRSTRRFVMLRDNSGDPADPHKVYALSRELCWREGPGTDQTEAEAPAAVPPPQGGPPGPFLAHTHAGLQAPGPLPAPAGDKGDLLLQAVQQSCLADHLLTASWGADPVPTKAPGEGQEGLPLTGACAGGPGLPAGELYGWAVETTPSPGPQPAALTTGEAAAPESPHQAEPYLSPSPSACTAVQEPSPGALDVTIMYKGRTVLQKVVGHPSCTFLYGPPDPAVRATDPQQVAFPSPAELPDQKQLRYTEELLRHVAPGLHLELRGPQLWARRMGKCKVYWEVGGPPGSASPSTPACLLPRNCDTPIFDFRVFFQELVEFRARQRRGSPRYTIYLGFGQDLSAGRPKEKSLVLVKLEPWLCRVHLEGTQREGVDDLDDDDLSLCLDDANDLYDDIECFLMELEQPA
For `GACGATTTCAGACCGGAGACGTGCTAG`, “fitted relative affinity” read 0.0561 z-score.
`TTAGATATCGGGACTGGTTTAGTGCTA` — result for “fitted relative affinity”: 0.00159 z-score.
`TCAGCTTTCCTGATGGTACTGTGCTAG`: “fitted relative affinity” 1.71 z-score.
For `TTAGGTATCGACTTTCGATTAGTGCTA`, “fitted relative affinity” read 4.51 z-score.
`GACGGTCTCGGACTTGGGACGTGCTAG` — result for “fitted relative affinity”: -0.477 z-score.
For `GACGTTATCGACTTTCGGGACGTGCTA`, “fitted relative affinity” read 3.36 z-score.
Under “fitted relative affinity”, `CTCTGGTTCTTGCTTGGTGTCGTGCTA` is recorded as 0.891 z-score.
For `GACGAACTGGGGACTGTAGACGTGCTA`, “fitted relative affinity” read -0.0761 z-score.

Block 4
Target: Histone acetyltransferase KAT6A, winged helix 2, GST fusion (KAT6A, Homo sapiens, UniProt Q92794, residues 85-181)
Method: protein binding microarray
Form: double-stranded DNA, one strand shown
Medium: in vitro
Tested at: not given
Notes: 8-mer, flanks averaged, mean of 2 arrays, mostly near background
Baseline: not given
Direction: higher = stronger binding
Residues (chain): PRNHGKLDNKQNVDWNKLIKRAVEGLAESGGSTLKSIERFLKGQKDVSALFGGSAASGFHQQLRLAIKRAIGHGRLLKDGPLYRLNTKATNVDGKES
For `AGGCATCG`, the E-score was 0.129.
The E-score of `CAATCGCA` is reported as 0.132.
For `CGCACCCC`, the E-score was -0.00481.
`AGCAAGTG` gave an E-score of -0.0215.
With `CGAACTTA` the E-score was 0.174.
With `GGACACCA` the E-score was 0.0461.
With `CGGGTCCA` the E-score was -0.0136.
For `ACATGTGC`, the E-score was -0.0973.

Single results of other studies
Cell line: HEK-293T
Effect on: pseudovirus infection
Organism: VSV pseudotyped with SARS-CoV-2 spike
Tested at: 10 µM
Time: 16 h
Baseline: vehicle-treated
`Nc1nc(F)nc2c1ncn2[C@@H]1O[C@H](CO)[C@@H](O)[C@@H]1O` has a GFP-positive cells of 70.7%.
With `CN(C/C=C/C#CC(C)(C)C)Cc1cccc2ccccc12` the GFP-positive cells was 64.3% (FDA-approved drug library screen).

A few entries again (block 4):
For `ACATGTGC`, the E-score was -0.0973.
With `GGACACCA` the E-score was 0.0461.
The E-score of `CAATCGCA` is reported as 0.132.
